Assay results collected from several papers.
A part holds a random share of what one study measured. Positions count from the first letter of the parent shown.

Block 1
Target: Prothrombin, mature alpha-thrombin (F2, Homo sapiens, UniProt P00734)
Technique: aptamer microarray, sandwich
Form: DNA with 2'F-ANA
Sample: in vitro
Concentration: 200 nM
Notes: whole 15-mer aptamer, many near background
Added: Cy3 exosite-II aptamer, 400 nM
Direction: higher = stronger binding
Oligonucleotide: GGTTGGTGTGGTTGG
Modification	mean fluorescence intensity
2'F-ANA at 1 3 5 6 7 9 10 12 13 14 15	46.3 a.u.
2'F-ANA at 1 2 4 5 8 10 11 12 15	48.9 a.u.
2'F-ANA at 1 2 3 5 6 7 8	62.5 a.u.
2'F-ANA at 2 4 5 6 9 10	58.5 a.u.
2'F-ANA at 2 5 6 7 9 12	151 a.u.
2'F-ANA at 1 2 4 6 8 11 15	110 a.u.
2'F-ANA at 3 6 8 12 13 14	562 a.u.
2'F-ANA at 2 4 7 8 9 11 14	104 a.u.
2'F-ANA at 1 2 3 4 6 8 14	65.1 a.u.
2'F-ANA at 1 2 6 9 13 14 15	53.1 a.u.
2'F-ANA at 1 2 5 6 12 14	44.8 a.u.
2'F-ANA at 1 3 4 5 6 7 10 12 13 14 15	46.7 a.u.

Block 2
Target: RING finger protein unkempt homolog, zinc fingers 1-6, GST-SBP tag (UNK, Homo sapiens, UniProt Q9C0B0, residues 30-357)
UniProt Q9C0B0, sequence (30-357, looked up): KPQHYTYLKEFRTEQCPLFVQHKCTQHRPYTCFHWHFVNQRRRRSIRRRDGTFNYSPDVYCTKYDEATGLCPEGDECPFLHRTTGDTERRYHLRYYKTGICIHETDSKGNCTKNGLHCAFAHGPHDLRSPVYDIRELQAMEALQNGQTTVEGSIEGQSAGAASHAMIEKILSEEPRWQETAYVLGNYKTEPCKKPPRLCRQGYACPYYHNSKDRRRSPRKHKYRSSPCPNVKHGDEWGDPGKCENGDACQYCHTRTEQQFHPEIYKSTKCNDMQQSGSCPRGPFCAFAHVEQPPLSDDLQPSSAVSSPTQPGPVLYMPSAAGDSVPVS
Technique: RNA Bind-n-Seq
Form: RNA
Sample: in vitro
Concentration: not given
Notes: RNA with constant flanks, human and mouse sites, ends assumed
Relative to: input RNA pool
Direction: higher = stronger binding
Constant ends, left off below: GGGAGUUCUACAGUCCGACGAUC … CAACAGAGGAUUGAGCAUCA
Oligonucleotide	bound/input enrichment [ratio]
UGUGGUGGAGAAGGUAUCUCAUUCCUCUCCAACAUCAUCUCCACUUUGCAUCUGUCUCUCUUAGUCUGCUUUUUUUCCACCGAUGUAACAGACCUGCAGCCAGCAAGACUCCGAGGGAAG	0.179
AGGUUGGGCCAUGACCCCUAUAGAUUAGGUCAUGAUGCUUACAGGUUAGGACAAGACCCUUAUAGAUUAGGCCAUGAUCCCUACAGACUAACUCCUGAUCCCUAUAGGAUGUCACCUAGA	9.16
AUAGUGAAAGGAGGCGCCGCAGAGAAGAGUGGCCUCCUGCACGAAGGAGACGAAGUUCUGGAGAUCAACGGCAUUGAAAUCCGGGGCAAGGAUGUCAAUGAGGUUUUUGACUUGUUGUCU	0.105
AAUGAUGUACAUUACUGUGAAUUUUUAUACCACUCAUUUUUAAAAGGGCUGUCUUUUCAUUUUAGUUUUCCAUACUGUGGUGGUGUACACAGGAUAGAACACCCUUUUUUAAAACACAGU	1.85
CAGUUGGAAUUGAUCACACCUUUUCAGUUAUACUUCAAUCCUGAAUUAAUUUUUAAACAUUUUCAAAUCUGGAGGCUAAUCACCAAUUUCUUAUUUUUUGGUCCAGUUGGAUUCAAUUUU	0.851
AUUGUCCGAGUGUCCCCAGUUAAACGAUUGGACCCAAUAAAUCUGACUGAUCGAGGCUCUGUGACCAAGAUUUAUGGGAGAGCUUUUGUUGCCGGUGUUUUGCCACUAAAAGUAGCAAAA	0.139
ACUUCAUCUUCCUCCUCUGAAGAUGAACAGCACUUUGAGAGGCGGAGGAAAAGGAGUCGUAAUAGGGCUAUCAAUAGGUGCCUCCCACUAAAUUUUCGGAAAGAUGAAUUAAAAGGCAUU	0.17
GUGAUUGGCUAAUAAAUGUUUGUCAAAGGAAGAAAGAGCUAAAAGCUCGAACAGUAUGGCUUGGAUGUCCAGAGAAGUGUGAAGAGAAACAUCCUAGGAAUUCUAUCAAAAAUCAGAAAU	0.348

Block 3
Target: CCNA2, cyclin fold, Cln2 fusion (human)
Technique: yeast growth competition, sequencing
Sample: yeast
Notes: strong parent motif
Relative to: not given
Direction: higher = stronger binding
Starting sequence: PKMYT1 docking peptide (human); SFEPRNLLSLFED; partner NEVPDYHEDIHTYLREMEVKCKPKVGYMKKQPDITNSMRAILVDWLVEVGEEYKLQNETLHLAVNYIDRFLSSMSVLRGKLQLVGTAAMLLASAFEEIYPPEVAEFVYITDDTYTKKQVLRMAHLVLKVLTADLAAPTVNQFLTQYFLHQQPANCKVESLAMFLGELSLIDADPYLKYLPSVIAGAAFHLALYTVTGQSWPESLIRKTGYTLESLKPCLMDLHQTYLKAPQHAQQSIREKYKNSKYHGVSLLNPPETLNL
Change	normalised enrichment score
SFAPRNLLSLFED [E3A]	3.31
SFEHRNLLSLFED [P4H]	-0.703
SFEPRNLLSLCED [F11C]	-0.952
SFYPRNLLSLFED [E3Y]	4.27
SFEPKNLLSLLED [R5K F11L]	0.59
SFEPRNLLFLFED [S9F]	2.29
SFEPRNLLLLFED [S9L]	1.91
SFCPRNLLSLFED [E3C]	3.44
SFEPRNLLSLFYD [E12Y]	2.2
SFEPRSLLSLFED [N6S]	2.96
SFEPRNLLHLFED [S9H]	2.4

Block 4
Target: Histone acetyltransferase KAT6A, winged helix 1, GST fusion (KAT6A, Homo sapiens, UniProt Q92794, residues 1-85)
Technique: protein binding microarray
Form: double-stranded DNA, one strand shown
Sample: in vitro
Concentration: not given
Notes: 8-mer, flanks averaged, mean of 2 arrays, mostly near background
Relative to: not given
Direction: higher = stronger binding
Residues (chain): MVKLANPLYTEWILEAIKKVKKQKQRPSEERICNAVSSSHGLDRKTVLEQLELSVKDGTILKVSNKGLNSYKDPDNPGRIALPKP
Oligonucleotide	E-score
GCAATAAA	-0.0664
ATTGGAAC	-0.214
CATCGGCC	0.27
CCGGCAAG	0.278
AACCACGT	-0.111
AGGTATAT	-0.0798
CAAGCATG	-0.176
CGTGAGGA	0.107
TAACTTAA	-0.113
AAGAAATC	-0.317
GCTAGACA	-0.0268
AGACACAT	-0.188
AATATTCA	-0.0339
CTGATCAC	-0.122
CACCAGAG	-0.202
ACCATACT	-0.175
GGACTAAC	-0.105
AGGTGACT	-0.243
CCGGCACG	0.293
GCCATAGC	0.0738
CAGCAACC	-0.101
AGTACACT	-0.104
ATATGGAG	-0.0763
ACCTGTAA	-0.0775
CGCTCATA	0.0215

Block 5
Target: ABI1, truncated, D143A, DHFR fusion (Arabidopsis thaliana)
Technique: DHFR PCA, deep sequencing
Sample: yeast
Notes: methotrexate growth selection, single substitutions
Added: (+)-ABA 1.4 µM
Relative to: wild-type fitted maximum
Direction: higher = stronger binding
Starting sequence: PYL1, truncated, DHFR fusion (Arabidopsis thaliana); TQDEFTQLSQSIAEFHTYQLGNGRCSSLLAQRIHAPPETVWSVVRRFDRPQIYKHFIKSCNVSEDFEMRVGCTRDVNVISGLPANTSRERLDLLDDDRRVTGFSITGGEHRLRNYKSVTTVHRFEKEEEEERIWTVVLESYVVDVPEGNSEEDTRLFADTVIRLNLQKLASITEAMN
Change	relative binding score [%]
R74Q	4.82
N22V	64.4
S63L	24.1
I105C	5.56
I33Y	8.16
V44Y	-25.5
S63Q	58.2
S140N	-7.92
S87V	38.6
V118T	66.8
E127L	58.9
D95L	0.548
Q167W	5.97
K54N	5.93

For quick reference, copied from above (block 1):
Modification	mean fluorescence intensity
2'F-ANA at 1 3 5 6 7 9 10 12 13 14 15	46.3 a.u.
2'F-ANA at 1 2 4 5 8 10 11 12 15	48.9 a.u.
2'F-ANA at 1 2 3 5 6 7 8	62.5 a.u.
2'F-ANA at 2 4 5 6 9 10	58.5 a.u.
2'F-ANA at 2 5 6 7 9 12	151 a.u.
2'F-ANA at 1 2 4 6 8 11 15	110 a.u.
